Published values from different studies.
Protocols differ between the studies behind these lines. ± gives the spread as reported.

SMILES | assay | system | setting | scale | quantity | result
CCCCCCCCCCCCCCCC(=O)N[C@@H](CCC(=O)NCCOCCOCCC(=O)NCCOCCOCCC(=O)NCCCC[C@H](NC(=O)[C@H](CC(=O)O)NC(=O)[C@H](CC(C)C)NC(=O)[C@H](Cc1ccc(O)cc1)NC(=O)[C@H](CCCCN)NC(=O)[C@H](CO)NC(=O)[C@H](Cc1ccc(O)cc1)NC(=O)[C@H](CC(=O)O)NC(=O)[C@H](CO)NC(=O)[C@@H](NC(=O)[C@H](Cc1ccccc1)NC(=O)[C@@H](NC(=O)CNC(=O)[C@H](CCC(N)=O)NC(=O)[C@@H](CO)NC(=O)[C@@H](N)Cc1c[nH]cn1)[C@@H](C)O)[C@@H](C)O)C(=O)N[C@@H](CCCNC(=N)N)C(=O)N[C@@H](CCCNC(=N)N)C(=O)N[C@@H](C)C(=O)N[C@@H](CCC(N)=O)C(=O)N[C@@H](CC(=O)O)C(=O)N[C@@H](Cc1ccccc1)C(=O)N[C@H](C(=O)N[C@@H](CCC(N)=O)C(=O)N[C@@H](Cc1c[nH]c2ccccc12)C(=O)N[C@@H](CC(C)C)C(=O)N[C@@H](CC(C)C)C(=O)N[C@@H](CC(N)=O)C(=O)N[C@H](C(=O)NCC(=O)NCC(=O)N1CCC[C@H]1C(=O)N[C@@H](CO)C(=O)N[C@@H](CO)C(=O)NCC(=O)N[C@@H](C)C(=O)N1CCC[C@H]1C(=O)N1CCC[C@H]1C(=O)N1CCC[C@H]1C(=O)N[C@@H](CO)C(N)=O)[C@@H](C)O)C(C)C)C(=O)O | – | Schistosoma japonicum-infected mice | 80 µg/kg/day, 14 days, after praziquantel treatment | – | liver granuloma area | decreased
COc1cc(C(Oc2ccc(C[C@H](N)C(=O)N[C@H](C)C(=O)NCC(=O)N(C)[C@@H](Cc3ccccc3)C(=O)NCCO)cc2)C(=O)O)c([N+](=O)[O-])cc1OC (stereo partly drawn) | inhibitory synaptic transmission, whole-cell voltage clamp | mouse hippocampal slices CA1 | 1 µM, no light | – | IPSC suppression fraction | -0.046 ± 0.05
CC[C@H](C)[C@H](NC(=O)[C@H](CCCNC(=N)N)NC(=O)[C@H](CCC(N)=O)NC(=O)[C@H](CC(=O)O)NC(=O)[C@H](CC(C)C)NC(=O)[C@H](CC(C)C)NC(=O)[C@H](CC(N)=O)NC(=O)[C@H](Cc1ccccc1)NC(=O)[C@H](CC(=O)O)NC(=O)[C@@H](NC(=O)[C@@H](NC(=O)[C@H](CC(N)=O)NC(=O)CNC(=O)[C@H](CO)NC(C)=O)C(C)C)[C@@H](C)CC)C(=O)N[C@H](C(=O)N[C@@H](Cc1c[nH]c2ccccc12)C(=O)N[C@@H](CCC(N)=O)C(=O)N[C@@H](CC(N)=O)C(=O)N[C@@H](Cc1c[nH]c2ccccc12)C(=O)N[C@@H](Cc1ccc(O)cc1)C(=O)N[C@@H](C)C(N)=O)[C@@H](C)CC | item: HA-19 tetramer | antigen-experienced tetramer+ CD4 T cells, healthy adults, HLA-DRB1*0101 | dose not given | – | α4β7− CCR9− cells | 61.5%
CS(C)(=O)=Nc1ccc(-c2ccc(-c3nc4cc(O[C@@H]5CO[C@H]6[C@@H]5OC[C@H]6O)[nH]c4cc3F)cc2)cc1 | – | ob/ob mouse, AMLN diet NASH model | oral, 5 mg/kg daily, 8 weeks | reference: vehicle | hepatic triglycerides | decreased
CC(C)C[C@@H]1NC(=O)[C@@H](Cc2c[nH]c3ccccc23)NC(=O)[C@H](CCCN)NC(=O)[C@@H](CO)NC(=O)[C@H](CCC(N)=O)NC(=O)[C@@H](CCC(=O)O)NC(=O)[C@H](CO)NC(=O)[C@@H](Cc2c[nH]c3ccccc23)NC1=O | ELISA | human plasma | concentration not given | – | pre-beta HDL concentration | 58 ± 12 µg/mL
CC(C)C[C@H](NC(=O)[C@H](CCCCN)NC(=O)[C@H](CCCNC(=N)N)NC(=O)[C@@H](CC(C)C)NC(=O)[C@H](Cc1c[nH]c2ccccc12)NC(=O)[C@H](CC(=O)O)NC(=O)[C@H](CCCCN)NC(=O)[C@@H](CC(C)C)NC(=O)[C@H](CCCNC(=N)N)NC(=O)[C@H](CCC(N)=O)NC(=O)[C@@H](NC(=O)[C@@H](CC(C)C)NC(=O)[C@H](CCCNC(=N)N)NC(=O)[C@H](CCCCN)NC(=O)[C@H](Cc1ccc(C(C)(C)C)cc1)NC(=O)CN)C(C)C)C(=O)N[C@H](C(N)=O)C(C)C | ELISA | C57BL/6 mouse, catheter infection, peri-catheter tissue | dose not given, 3 d | reference: untreated infected | CCL2 level | increased
CCN(Cc1ccccc1)C(=O)CCc1nc(CN2CCN(C(=O)Cc3ccc(OC)c(OC)c3)CC2)no1 | current clamp | L4-L6 DRG neurons, rat CCI model | 3 µM, added: 500 pA current injection | – | action potential threshold | -7.14 ± 2.34 mV
CC(C)C[C@H](NC(=O)CNC(=O)[C@H](CCC(=O)O)NC(=O)[C@H](CCCCN)NC(=O)[C@H](CC(C)C)NC(=O)[C@H](C)NC(=O)[C@H](C)NC(=O)CNC(=O)[C@H](C)NC(=O)[C@H](CCCCN)NC(=O)[C@H](CCC(=O)O)NC(=O)[C@H](CC(C)C)NC(=O)[C@H](CCCCN)NC(=O)[C@H](CCCCN)NC(=O)[C@H](CC(C)C)NC(=O)[C@H](CC(C)C)NC(=O)[C@H](CCCCN)NC(=O)[C@H](Cc1c[nH]c2ccccc12)NC(=O)[C@@H](N)CCCCN)C(=O)N[C@@H](CC(C)C)C(=O)N[C@@H](CCCCN)C(=O)N[C@@H](C)C(=O)NCC(=O)N1CCC[C@H]1C(=O)N[C@@H](C)C(=O)N[C@@H](CC(C)C)C(=O)N[C@@H](C)C(=O)N[C@@H](CC(C)C)C(=O)N[C@@H](CC(C)C)C(=O)NCC(=O)N[C@@H](C)C(=O)N[C@@H](C)C(=O)N[C@@H](C)C(=O)N[C@@H](C)C(=O)N[C@@H](CC(C)C)C(=O)N[C@@H](C)C(=O)N[C@@H](CCCCN)C(N)=O | – | POPC/POPG 1:1 vesicles | – | reference: DPX over ANTS | DPX/ANTS release rate ratio | 8.5
CC[C@H](C)[C@H](NC(=O)[C@H](C)NC(=O)CNC(=O)[C@@H](N)CCSC)C(=O)N[C@@H](C)C(=O)N[C@@H](CCCCN)C(=O)N[C@@H](CC(C)C)C(=O)N[C@@H](CCCNC(=N)N)C(=O)N[C@@H](C)C(=O)N[C@@H](CCCCN)C(=O)N[C@@H](Cc1ccccc1)C(=O)NCC(=O)N[C@@H](Cc1c[nH]c2ccccc12)C(=O)N1CCC[C@H]1C(=O)N[C@@H](Cc1ccccc1)C(=O)N[C@H](C(=O)N[C@@H](CCCCN)C(=O)N[C@@H](CCCCN)C(=O)N[C@@H](Cc1ccccc1)C(=O)N[C@@H](Cc1ccc(O)cc1)C(=O)N[C@@H](CCCCN)C(=O)N[C@@H](CCC(N)=O)C(=O)N[C@H](C(=O)N[C@@H](CCSC)C(=O)N[C@@H](CCC(N)=O)C(=O)N[C@@H](Cc1ccccc1)C(=O)N[C@H](C(=O)NCC(=O)N[C@@H](CCC(N)=O)C(=O)NCC(=O)N[C@@H](Cc1c[nH]c2ccccc12)C(=O)N[C@H](C(=O)N[C@H](C(=O)N[C@@H](CC(=O)O)C(=O)N[C@@H](CCC(N)=O)C(=O)N[C@H](C(=O)N[C@@H](CCC(=O)O)C(=O)N[C@@H](CCCCN)C(=O)N[C@@H](Cc1c[nH]c2ccccc12)C(=O)N[C@@H](CC(C)C)C(=O)N[C@@H](CCCCN)C(=O)N[C@@H](CCCNC(=N)N)C(=O)N[C@@H](Cc1c[nH]cn1)C(=O)O)[C@@H](C)CC)[C@@H](C)CC)[C@@H](C)O)[C@@H](C)CC)[C@@H](C)CC)[C@@H](C)CC | – | PG/PE 1:1 liposomes | MIC | reference: Triton X-100 | calcein release | 30.1 ± 1.1%
CC[C@H](C)[C@H](NC(=O)[C@H](CCC(=O)O)NC(=O)CNC(=O)[C@@H](NC(=O)[C@H](CC(C)C)NC(=O)[C@H](CC(C)C)NC(=O)[C@H](CC(C)C)NC(=O)[C@H](CC(C)C)NC(=O)[C@H](CS)NC(=O)[C@H](CO)NC(=O)[C@H](Cc1ccccc1)NC(=O)CNC(=O)[C@H](CCCNC(=N)N)NC(=O)[C@@H]1CCCN1C(=O)[C@H](C)NC(=O)[C@H](CCSC)NC(=O)CNC(=O)CNC(=O)[C@H](Cc1ccccc1)NC(=O)[C@H](CCCCN)NC(=O)[C@H](Cc1c(C)cc(O)cc1C)NC(=O)[C@H](N)CCCNC(=N)N)[C@@H](C)O)C(=O)N[C@@H](CC(=O)O)C(=O)N[C@@H](CC(C)C)C(=O)N1CCC[C@H]1C(=O)N[C@H](C(=O)N[C@@H](CCCCN)C(=O)N[C@@H](CCCNC(=N)N)C(=O)N[C@@H](CCCNC(=N)N)C(=O)N[C@@H](C)C(N)=O)C(C)C | western blot | male transgenic AD mice, hippocampus | iv, 88.4 nmol/kg/day, 28 days | reference: HNG plus SS-31 | p-STAT3/STAT3 ratio | 137%
CC(C)C[C@@H]1NC(=O)[C@H](C(C)C)NC(=O)[C@H](CO)NC(=O)CNC(=O)CNC(=O)[C@H](CCCNC(=N)N)NC(=O)[C@@H]2CCCN2C(=O)[C@@H](NC(=O)CC[C@H](NC(=O)c2ccc(N(C)Cc3cnc4nc(N)nc(N)c4n3)cc2)C(=O)O)C(C)(C)SSC[C@@H](C(=O)O)NC(=O)CNC(=O)[C@H]([C@@H](C)O)NC(=O)[C@H](C(C)C)NC1=O | – | rat adjuvant arthritis | iv, 5 mg/kg once daily, day 14 | reference: arthritis vehicle, direction not given | bone resorption score reduction | 71%
CC[C@H](C)[C@H](NC(=O)[C@H](Cc1c[nH]c2ccccc12)NC(=O)[C@H](CCCNC(=N)N)NC(=O)[C@H](CCCCN)NC(=O)[C@H](CC(C)C)NC(=O)[C@H](CC(=O)O)NC(=O)[C@H](Cc1ccccc1)NC(=O)[C@H](C)NC(=O)[C@H](Cc1ccc(O)cc1)NC(=O)[C@H](CC(N)=O)NC(=O)[C@H](Cc1ccc(O)cc1)NC(=O)[C@H](CCCNC(=N)N)NC(=O)[C@H](Cc1ccc(O)cc1)NC(=O)[C@H](Cc1ccc(O)cc1)NC(=O)[C@@H](NC(=O)[C@H](CC(C)C)NC(=O)[C@H](C)NC(=O)[C@H](CC(N)=O)NC(=O)[C@H](Cc1ccc(O)cc1)NC(C)=O)[C@@H](C)CC)C(=O)N[C@@H](Cc1ccc(O)cc1)C(=O)N[C@@H](CC(C)C)C(N)=O | item: HA-02 tetramer | antigen-experienced tetramer+ CD4 T cells, healthy adults, HLA-DRB1*0101 | dose not given | – | α4β7− CCR9− cells | 27.3%
C[C@@H](O)[C@H](NC(=O)[C@@H]1CSSC[C@H](NC(=O)[C@@H](Cc2ccccc2)NC(=O)CN2CCN(CC(N)=O)CCN(CC(N)=O)CCN(CC(N)=O)CC2)C(=O)N[C@@H](Cc2ccc(O)cc2)C(=O)N[C@H](Cc2c[nH]c3ccccc23)C(=O)N[C@@H](CCCCN)C(=O)N[C@@H]([C@@H](C)O)C(=O)N1)C(=O)O [lead-212 labelled] | – | AR-42J tumour, mice | two x 5 µCi, three weeks apart | – | median survival | 7.1 weeks
COc1ccc(-c2c(C#N)c(N)nc3c2CCc2nc4c(cc2-3)c(C)nn4-c2ccccc2)cc1 | DPPH scavenging, absorbance | – | – | – | EC50 | > 100 µg/mL
Cc1cc(O)cc(C)c1CC(N)C(=O)NC1CCNc2c(C(=O)O)cc(Cc3ccccc3)cc21 (stereo not drawn) | warm water tail withdrawal | male C57BL/6 mice | intraperitoneal, 10 mg/kg | – | antinociception | inactive
Cc1cnc(Nc2ccc(C3CCN(C)CC3)c(F)c2)nc1Nc1ccc(Cl)c(NS(=O)(=O)C(C)(C)C)c1 | – | U-266 multiple myeloma, non-targeting control, mice, U-266 xenograft | subcutaneous, 10 mg/kg/day, Mon-Fri from day 20 | – | median survival | 41 days
Cc1ccc(/C=C/C(=O)O)cc1-c1cc2c(cc1C)C(C)(C)CCC2(C)C | RNA sequencing, item: Acot1 mRNA | rat, brain | dose not given, 24 h, single dose | reference: vehicle | log2 fold change | 0.41
COC[C@@H](NC(C)=O)C(=O)NCc1ccc(OCc2cccc(OC(F)(F)F)c2)cc1 | formalin test, phase II | mouse | ip, 12 mg/kg | reference: vehicle | licking time | 98%

Some of these lines once more:
SMILES | assay | system | setting | scale | quantity | result
Cc1cc(O)cc(C)c1CC(N)C(=O)NC1CCNc2c(C(=O)O)cc(Cc3ccccc3)cc21 (stereo not drawn) | warm water tail withdrawal | male C57BL/6 mice | intraperitoneal, 10 mg/kg | – | antinociception | inactive
Cc1cnc(Nc2ccc(C3CCN(C)CC3)c(F)c2)nc1Nc1ccc(Cl)c(NS(=O)(=O)C(C)(C)C)c1 | – | U-266 multiple myeloma, non-targeting control, mice, U-266 xenograft | subcutaneous, 10 mg/kg/day, Mon-Fri from day 20 | – | median survival | 41 days
Cc1ccc(/C=C/C(=O)O)cc1-c1cc2c(cc1C)C(C)(C)CCC2(C)C | RNA sequencing, item: Acot1 mRNA | rat, brain | dose not given, 24 h, single dose | reference: vehicle | log2 fold change | 0.41
